Published values pooled from the literature.
A part holds a random share of what one study measured. “And” joins repeats or separate records; there may be more than shown.
Sequence of UniProt Q14289 (whole entry, looked up): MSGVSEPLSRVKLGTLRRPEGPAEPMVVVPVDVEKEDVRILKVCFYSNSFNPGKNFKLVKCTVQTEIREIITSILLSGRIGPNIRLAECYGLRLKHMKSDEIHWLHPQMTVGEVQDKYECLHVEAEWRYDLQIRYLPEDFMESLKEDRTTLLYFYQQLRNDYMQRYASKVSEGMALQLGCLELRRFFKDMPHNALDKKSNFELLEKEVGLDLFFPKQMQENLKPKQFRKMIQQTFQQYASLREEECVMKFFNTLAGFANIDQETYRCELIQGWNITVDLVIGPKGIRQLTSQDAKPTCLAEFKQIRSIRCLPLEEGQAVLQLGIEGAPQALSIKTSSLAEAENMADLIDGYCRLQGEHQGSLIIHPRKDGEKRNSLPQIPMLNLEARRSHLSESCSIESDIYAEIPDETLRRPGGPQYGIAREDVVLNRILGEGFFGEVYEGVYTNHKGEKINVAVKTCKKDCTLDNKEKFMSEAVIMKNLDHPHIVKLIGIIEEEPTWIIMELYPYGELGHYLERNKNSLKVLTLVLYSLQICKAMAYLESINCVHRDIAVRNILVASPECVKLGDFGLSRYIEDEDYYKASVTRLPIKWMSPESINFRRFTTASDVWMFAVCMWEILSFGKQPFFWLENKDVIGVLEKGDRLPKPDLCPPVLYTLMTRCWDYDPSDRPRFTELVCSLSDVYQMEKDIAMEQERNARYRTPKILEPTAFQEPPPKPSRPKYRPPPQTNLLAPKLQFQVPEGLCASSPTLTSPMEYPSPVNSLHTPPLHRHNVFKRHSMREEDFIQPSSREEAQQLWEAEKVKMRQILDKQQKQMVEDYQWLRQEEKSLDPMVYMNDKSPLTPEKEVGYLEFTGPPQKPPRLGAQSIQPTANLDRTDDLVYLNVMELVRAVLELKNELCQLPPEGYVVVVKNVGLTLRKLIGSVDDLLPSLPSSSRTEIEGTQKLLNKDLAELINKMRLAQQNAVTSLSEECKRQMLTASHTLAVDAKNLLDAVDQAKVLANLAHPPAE
Sequence of UniProt P53667 (whole entry, looked up): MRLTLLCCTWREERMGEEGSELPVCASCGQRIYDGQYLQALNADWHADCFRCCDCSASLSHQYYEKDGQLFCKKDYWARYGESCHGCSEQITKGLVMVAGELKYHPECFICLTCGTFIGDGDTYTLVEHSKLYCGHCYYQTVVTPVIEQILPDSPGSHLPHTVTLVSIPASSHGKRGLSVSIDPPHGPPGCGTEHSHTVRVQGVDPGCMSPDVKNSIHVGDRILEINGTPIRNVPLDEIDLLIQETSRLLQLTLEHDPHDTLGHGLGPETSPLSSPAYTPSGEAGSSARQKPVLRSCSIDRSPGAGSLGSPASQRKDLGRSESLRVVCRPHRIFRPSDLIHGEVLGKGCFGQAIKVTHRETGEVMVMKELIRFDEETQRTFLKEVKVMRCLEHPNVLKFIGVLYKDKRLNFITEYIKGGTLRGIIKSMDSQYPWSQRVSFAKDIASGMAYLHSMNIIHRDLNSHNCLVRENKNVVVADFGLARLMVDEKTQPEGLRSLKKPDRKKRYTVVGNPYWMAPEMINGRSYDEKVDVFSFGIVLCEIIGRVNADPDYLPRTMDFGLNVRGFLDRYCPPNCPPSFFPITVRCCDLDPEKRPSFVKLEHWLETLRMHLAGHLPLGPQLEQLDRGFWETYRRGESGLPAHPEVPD
Sequence of UniProt P15056 (whole entry, unmodified, looked up): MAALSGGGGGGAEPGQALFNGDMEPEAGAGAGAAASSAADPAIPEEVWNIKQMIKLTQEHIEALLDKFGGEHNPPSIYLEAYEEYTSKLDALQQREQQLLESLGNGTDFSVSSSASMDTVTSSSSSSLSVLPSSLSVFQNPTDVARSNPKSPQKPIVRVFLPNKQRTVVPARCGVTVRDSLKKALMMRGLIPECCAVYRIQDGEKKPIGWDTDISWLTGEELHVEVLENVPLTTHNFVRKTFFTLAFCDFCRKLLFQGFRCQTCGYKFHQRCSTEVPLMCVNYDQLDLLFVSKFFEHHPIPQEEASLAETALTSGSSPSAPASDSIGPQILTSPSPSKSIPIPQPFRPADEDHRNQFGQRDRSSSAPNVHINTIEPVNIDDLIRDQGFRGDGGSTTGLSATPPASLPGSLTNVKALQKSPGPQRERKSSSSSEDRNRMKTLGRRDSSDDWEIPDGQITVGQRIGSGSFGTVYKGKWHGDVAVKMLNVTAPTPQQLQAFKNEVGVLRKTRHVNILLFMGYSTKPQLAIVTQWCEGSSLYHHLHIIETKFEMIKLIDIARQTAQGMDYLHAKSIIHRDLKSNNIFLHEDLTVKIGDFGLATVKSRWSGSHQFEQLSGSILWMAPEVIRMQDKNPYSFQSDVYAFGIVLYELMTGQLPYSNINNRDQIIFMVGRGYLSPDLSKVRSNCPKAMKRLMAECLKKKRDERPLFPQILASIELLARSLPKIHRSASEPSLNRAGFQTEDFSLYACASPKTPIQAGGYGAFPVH

Sample 1 — host: mouse; sample: microsomes or S9; concentration: 2 µM; time: 0.5 h
`CCNS(=O)(=O)c1cc(-c2ccc(=O)[nH]n2)sc1C` gave a remaining compound of 91%.
The remaining compound of `CCOc1cccc2c(C)nc(Nc3nc(=O)c4c([nH]3)CCCC4)nc12` is reported as 7.88%.
The remaining compound of `COc1ccc(N)cc1-n1nnnc1-n1cccn1` is reported as 79.2%.
The remaining compound of `Fc1cc(F)cc(-c2cc3cc(-c4ccccc4)[nH]c3cn2)c1` is reported as 64.9%.
With `CC(C)(C)c1cc(NC(=O)Cn2nnn(-c3ccccc3)c2=O)on1` the remaining compound was 4.41%.
The remaining compound of `OC/C=C/Cc1cc2cc(Cl)ccc2n1-c1ncccn1` is reported as 23.3%.
`COc1ccc(NC(=O)COCc2ccccc2)cc1` gave a remaining compound of 2.41%.

Sample 2 — action: inhibitor; concentration: 5 µM
Compound: COc1cc(C(=O)N2CCC(N3CCN(C)CC3)CC2)ccc1Nc1ncc2c(n1)N(C)c1ccccc1C(=O)N2C
The “log2 fold change” was -0.009 (PTK2B (Homo sapiens, UniProt Q14289); kinase activity; cell-based kinome screen; relative to: vehicle).
It gave -0.235 for “log2 fold change” (RAF1 (Homo sapiens, UniProt P04049); kinase activity; cell-based kinome screen; relative to: vehicle).
human ITK-SYK fusion; kinase–CDC37 interaction; relative to: vehicle — “log2 fold change”: 0.312.
BRAF (Homo sapiens, UniProt P15056, G466V); cell-based kinome profiling; human cells; relative to: vehicle control — “log2 fold change”: -0.219.
It gave 0.01 log2 for “log2 fold change” (LIM domain kinase 1 (LIMK1, Homo sapiens, UniProt P53667); cell-based kinome screen; human cells; relative to: untreated control).

Sample 3 — observed: enzyme activity; action: inhibitor; concentration: 77 µM; relative to: untreated
Target: DNA polymerase theta, ATPase domain (POLQ, Homo sapiens, UniProt O75417)
Sequence of UniProt O75417 (whole entry, unmodified, looked up): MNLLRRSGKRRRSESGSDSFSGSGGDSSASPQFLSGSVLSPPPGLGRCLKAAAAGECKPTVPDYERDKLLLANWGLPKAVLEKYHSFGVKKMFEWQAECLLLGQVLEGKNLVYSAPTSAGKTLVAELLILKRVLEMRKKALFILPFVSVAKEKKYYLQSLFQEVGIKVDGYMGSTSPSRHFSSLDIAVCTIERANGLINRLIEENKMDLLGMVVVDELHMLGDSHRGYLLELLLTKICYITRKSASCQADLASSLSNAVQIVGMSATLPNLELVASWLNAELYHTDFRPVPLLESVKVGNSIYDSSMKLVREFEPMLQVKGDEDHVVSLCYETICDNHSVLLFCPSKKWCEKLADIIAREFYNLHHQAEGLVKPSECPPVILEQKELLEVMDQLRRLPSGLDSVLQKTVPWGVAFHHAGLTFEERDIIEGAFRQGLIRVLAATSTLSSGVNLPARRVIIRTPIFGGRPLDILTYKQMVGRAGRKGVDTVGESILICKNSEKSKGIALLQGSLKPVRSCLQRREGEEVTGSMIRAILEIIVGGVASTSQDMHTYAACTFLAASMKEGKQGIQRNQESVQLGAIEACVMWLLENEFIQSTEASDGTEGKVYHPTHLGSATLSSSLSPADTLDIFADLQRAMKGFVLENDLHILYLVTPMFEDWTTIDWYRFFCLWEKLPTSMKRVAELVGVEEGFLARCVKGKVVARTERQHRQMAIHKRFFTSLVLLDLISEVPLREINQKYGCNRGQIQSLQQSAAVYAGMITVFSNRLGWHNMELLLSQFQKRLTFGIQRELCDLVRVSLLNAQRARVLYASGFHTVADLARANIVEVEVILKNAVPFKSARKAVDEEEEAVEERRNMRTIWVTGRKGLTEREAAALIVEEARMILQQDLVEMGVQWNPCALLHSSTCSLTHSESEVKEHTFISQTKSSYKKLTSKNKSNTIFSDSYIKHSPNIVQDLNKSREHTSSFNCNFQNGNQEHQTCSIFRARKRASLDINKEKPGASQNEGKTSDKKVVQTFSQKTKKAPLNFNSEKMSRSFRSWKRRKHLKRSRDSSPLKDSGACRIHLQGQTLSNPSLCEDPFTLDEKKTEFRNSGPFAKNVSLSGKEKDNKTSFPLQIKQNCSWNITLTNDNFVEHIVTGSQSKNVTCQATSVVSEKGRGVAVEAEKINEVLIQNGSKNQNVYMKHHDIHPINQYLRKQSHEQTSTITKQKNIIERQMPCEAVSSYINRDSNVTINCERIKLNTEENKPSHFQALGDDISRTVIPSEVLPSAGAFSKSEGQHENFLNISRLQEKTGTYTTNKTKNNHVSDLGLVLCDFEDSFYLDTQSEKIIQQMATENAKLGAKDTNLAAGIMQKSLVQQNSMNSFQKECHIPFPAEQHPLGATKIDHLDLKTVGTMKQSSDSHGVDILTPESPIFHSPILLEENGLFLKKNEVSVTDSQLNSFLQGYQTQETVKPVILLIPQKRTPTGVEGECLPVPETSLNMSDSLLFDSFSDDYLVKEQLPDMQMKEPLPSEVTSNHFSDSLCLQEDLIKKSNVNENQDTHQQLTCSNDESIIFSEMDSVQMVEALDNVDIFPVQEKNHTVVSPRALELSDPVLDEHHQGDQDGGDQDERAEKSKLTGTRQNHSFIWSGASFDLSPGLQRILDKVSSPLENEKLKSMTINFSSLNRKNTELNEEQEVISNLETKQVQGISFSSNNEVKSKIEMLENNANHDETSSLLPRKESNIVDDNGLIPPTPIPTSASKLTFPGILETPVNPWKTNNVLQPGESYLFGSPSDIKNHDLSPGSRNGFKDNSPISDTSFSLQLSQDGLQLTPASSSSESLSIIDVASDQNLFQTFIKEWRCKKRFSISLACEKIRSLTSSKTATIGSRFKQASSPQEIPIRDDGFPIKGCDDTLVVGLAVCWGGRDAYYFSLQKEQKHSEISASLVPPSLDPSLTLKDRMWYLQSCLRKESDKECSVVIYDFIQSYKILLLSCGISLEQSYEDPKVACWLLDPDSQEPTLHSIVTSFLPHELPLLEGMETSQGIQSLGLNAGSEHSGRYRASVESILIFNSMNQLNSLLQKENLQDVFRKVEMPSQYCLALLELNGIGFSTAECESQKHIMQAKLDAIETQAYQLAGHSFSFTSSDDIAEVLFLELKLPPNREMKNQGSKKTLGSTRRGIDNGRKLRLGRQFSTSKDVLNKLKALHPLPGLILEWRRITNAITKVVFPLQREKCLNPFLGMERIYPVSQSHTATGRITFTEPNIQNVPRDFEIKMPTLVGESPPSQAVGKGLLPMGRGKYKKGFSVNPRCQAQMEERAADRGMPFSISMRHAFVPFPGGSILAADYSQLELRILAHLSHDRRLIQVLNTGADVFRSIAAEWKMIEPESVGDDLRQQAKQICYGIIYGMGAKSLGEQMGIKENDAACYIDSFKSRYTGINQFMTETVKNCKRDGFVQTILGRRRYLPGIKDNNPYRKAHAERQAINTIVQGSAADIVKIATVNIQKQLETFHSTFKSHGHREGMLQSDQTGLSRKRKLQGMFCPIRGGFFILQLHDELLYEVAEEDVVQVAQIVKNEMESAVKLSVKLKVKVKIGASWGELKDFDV
With `CCOC(=O)C1=C[C@]2(CC)CCCN3CCc4c(n1c1ccccc41)[C@@H]32` the remaining activity was 103% and 98.4%.
The remaining activity of `C#CCC(Cc1cnc2nc(N)nc(N)c2n1)c1ccc(C(=O)N[C@@H](CCC(=O)O)C(=O)O)cc1` (stereo partly shown) is reported as 99.5%.
With `Cc1ncc([N+](=O)[O-])n1CCO` the remaining activity was 87.1% and 101%.
`Nc1nc2ccc(Cl)cc2n2c(-c3ccccc3)nnc12` gave a remaining activity of 98%.
With `C[C@@H]1CCC[C@H](C)N1NC(=O)c1ccc(Cl)c(S(N)(=O)=O)c1` the remaining activity was 102%.
`O=C(O)CCC(=O)c1ccc(-c2ccccc2)cc1` has a remaining activity of 90.4%.
The remaining activity of `c1coc(CNc2ncnc3[nH]cnc23)c1` is reported as 102%.
The remaining activity of `COC(=O)Nc1nc2cc([S+]([O-])c3ccccc3)ccc2[nH]1` (stereo not shown) is reported as 96.3%.

Sample 4 — technique: CellTiter-Glo; concentration: 1 µM; notes: mean of five organoid lines; relative to: DMSO
Cell line: normal adjacent epithelium patient-derived organoids
With `CC(C)(O)c1cncc(-c2nc3ccc(F)cc3n2C2CC2)c1` the viability was 105%.
With `Cc1nc(C2CCN(C(=O)c3ccc(OC(F)(F)F)cc3N)CC2)c2ncc(N3CCN(C)CC3)cc2n1` the viability was 110%.
With `CNC(=O)c1cc(C(=O)N[C@H]2[C@@H]3COC[C@@H]32)cc2c1O[C@@H](CF)[C@@H]2c1ccccc1` the viability was 104%.
`N#CC1(c2ccccn2)CCN(Cc2cc(C(=O)N3CCCC3)c(=O)n3ccccc23)CC1` has a viability of 117%.
With `CN(c1ccnc(CNc2nc(Nc3ccc4c(c3)CC(=O)N4)ncc2C(F)(F)F)n1)S(C)(=O)=O` the viability was 108%.
The viability of `O=C(O)c1ccc(-c2c[nH]c3ncc(-c4ccccc4)cc23)cc1C1CCCC1` is reported as 109%.
With `N#CC1(c2ccccn2)CCN(Cc2cc(C(=O)O)c(=O)n3ccccc23)CC1` the viability was 107%.
With `Cn1cncc1[C@](O)(COc1ccc(C#N)cc1-c1ccc(OC(F)(F)F)cc1)c1ccc(C#N)cc1` the viability was 42.4%.
For `O=C(NNS(=O)(=O)c1ccccc1F)c1cc(F)cc(-c2ccccn2)c1`, the viability was 93.9%.
The viability of `CN1CCN(c2cnc3c(C4CCN(C(=O)c5ccc(OC(F)(F)F)cc5N)CC4)ncnc3c2)CC1` is reported as 99.5%.
`CN(C)C(=O)Cn1cc(-c2ccc(-c3cncc4ccccc34)cc2)cn1` gave a viability of 108%.
`C[C@H](c1cccc(C#N)c1)n1cc(Cl)cc(C(N)=O)c1=N` gave a viability of 119%.
With `CN(C)[C@H]1CCN(c2cc(-c3ccccc3)nc3ccnn23)C1` the viability was 118%.
For `Cc1cc(-n2nc(Cc3cc(F)cc(C(F)(F)F)c3)nc2C)ccc1C(N)=O`, the viability was 98.2%.
The viability of `CCC(=O)N[C@@H]1CC[C@H](C(=O)N(C)c2ccc(-c3nc4ccccc4o3)cc2)C1` is reported as 96.9%.
The viability of `CNc1nc(-c2ccc3c(N)n[nH]c3c2)cc(N2C[C@@H](C(=O)NC3CCCCC3)CC[C@H]2C)n1` is reported as 94.3%.
`CN1CCN(C(=O)C(C)(C)c2ccc(C(=O)Nc3cn4cc(-c5cc(C(C)(C)C)cc(C(C)(C)C)c5)ccc4n3)cc2)CC1` gave a viability of 102%.
`C[C@@H](NC(=O)Nc1cc2[nH]ncc2c(CO)n1)c1ccccc1` has a viability of 84.6%.
The viability of `Nc1nc(NCc2ccccc2)nc(-c2ccccc2CO)n1` is reported as 118%.
`COc1cc(-c2cn(C3CCc4c(F)cccc4N(CC(F)(F)F)C3=O)nn2)ccc1-n1cnc(C)c1` (stereo not shown) has a viability of 112%.

Excerpt of the above (sample 4):
For `Cc1cc(-n2nc(Cc3cc(F)cc(C(F)(F)F)c3)nc2C)ccc1C(N)=O`, the viability was 98.2%.
The viability of `CCC(=O)N[C@@H]1CC[C@H](C(=O)N(C)c2ccc(-c3nc4ccccc4o3)cc2)C1` is reported as 96.9%.
The viability of `CNc1nc(-c2ccc3c(N)n[nH]c3c2)cc(N2C[C@@H](C(=O)NC3CCCCC3)CC[C@H]2C)n1` is reported as 94.3%.
`CN1CCN(C(=O)C(C)(C)c2ccc(C(=O)Nc3cn4cc(-c5cc(C(C)(C)C)cc(C(C)(C)C)c5)ccc4n3)cc2)CC1` gave a viability of 102%.
`C[C@@H](NC(=O)Nc1cc2[nH]ncc2c(CO)n1)c1ccccc1` has a viability of 84.6%.
The viability of `Nc1nc(NCc2ccccc2)nc(-c2ccccc2CO)n1` is reported as 118%.
